# Results gathered from unrelated publications.
# Each numbered part is a random draw from the data of one study; scales do not carry over between parts.

# Study 1
# Target: Sal-like protein 4, full length isoform B (SALL4, Homo sapiens, UniProt Q9UJQ4-2, residues 1-616)
# Method: universal PBM
# Molecule type: double-stranded DNA, one strand shown
# Sample: in vitro
# Tested at: not given
# Notes: 8-mer, flanks averaged, mean of replicates
# Reading: higher = stronger binding
Sequence,E-score
ACTGTAAG,0.146
GGGCATCA,-0.188
AATCCAAA,0.266
CCATCCGG,-0.309
GGGATGGA,-0.232
GGACGGAC,-0.274
CGCTGCAG,-0.269
CCTAGGAA,-0.0443
CGAGCCTA,-0.0662
ACAGGTGA,0.107
GGAAACAA,-0.0186
TTCTGAAA,0.224
GACCTCCC,-0.312
CAGATCTC,-0.213
AAATATGC,0.289
CTGACAAA,0.133
ACCCACCC,-0.0969
GAAATAAC,0.176
CACCGGGA,-0.308
CAAGTTCC,-0.111
CTAGTTGA,-0.0328
AGATGTGC,0.0427
ACCCTCCC,-0.139
ACAGATCC,0.0537

# Study 2
# Target: Centromere-binding protein 1, full length, N-terminal tag (CBF1, Saccharomyces cerevisiae, UniProt P17106, residues 1-351)
# Sequence of UniProt P17106 (whole entry, looked up): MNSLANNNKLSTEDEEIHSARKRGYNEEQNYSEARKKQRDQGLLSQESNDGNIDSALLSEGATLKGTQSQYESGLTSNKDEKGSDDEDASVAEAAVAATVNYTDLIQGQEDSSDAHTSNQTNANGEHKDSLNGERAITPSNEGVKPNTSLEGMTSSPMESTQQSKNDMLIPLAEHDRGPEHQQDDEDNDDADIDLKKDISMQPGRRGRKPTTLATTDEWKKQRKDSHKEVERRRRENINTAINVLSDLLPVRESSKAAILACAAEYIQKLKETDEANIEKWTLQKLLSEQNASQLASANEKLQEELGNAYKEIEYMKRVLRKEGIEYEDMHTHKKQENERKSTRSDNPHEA
# Method: protein-binding microarray
# Molecule type: double-stranded DNA, one strand shown
# Sample: in vitro
# Tested at: 0.8 µM
# Notes: whole 60-bp probe, no competitor
# Reading: higher = stronger binding
# Constant ends, left off below: … GTCTTGATTCGCTTGACGCTGCTG
Sequence,fluorescence intensity
CTAATCGTTCTCCGTGAGGTGGATTTACTGTTATTC,509 a.u.
GAATCTGTGAGGCAACTCGTGATTTCGAAACAATAG,1430 a.u.
TGTACGAAGCTATACTTCGTGCATATAGTAGTTAGG,492 a.u.
GAAACTCTTCTTCGACACGTGTCGAGAAAAAAATAG,11400 a.u.
CTATATCCTCATCGTAACGTGAATTTTTTTGTCTTC,561 a.u.
GAACCATCTTTCACTTATCTGATGTTCCTGATTTAG,784 a.u.
CTAATAAGAAGGACGAGCGTGGTGGAGGAAAGGTTC,543 a.u.
GAATTCACTGATATGGACGTGGTATGCGGAGATTAG,567 a.u.
CTAGAAGCAGAAATACACGCAATAAGTGAATCTTTC,549 a.u.
CTACTTGCAAAAGGTCACATGCTTATAATCAACTTC,5770 a.u.
GAATTTGATGGCCGTCACATGGTACGCCACTAATAG,2830 a.u.
CTATAGTGGCGGTATCTCCTGTGCCTTCCCCCGTTC,478 a.u.
CCTAACTACTATATTACCACCAGATAGCTTCGTACA,543 a.u.
GAAGTGCTCATCAACGTGACTATTCAGCAACTGTAG,1610 a.u.
CCTAACTACTATAGTCACATCTTATAGCTTCGTACA,540 a.u.
CTAATGTACATAAGTCACGTTTTTGCAGCCAATTTC,2940 a.u.
CTATCTTGTTTCAGGCACGTTCATGTTAGTGTCTTC,704 a.u.
CCTAACTACTATAGCCTCATGACATAGCTTCGTACA,558 a.u.
CCTAACTACTATAACTACCTGATATAGCTTCGTACA,530 a.u.

# Study 3
# Target: Histone acetyltransferase KAT6A, winged helix 1, GST fusion (KAT6A, Homo sapiens, UniProt Q92794, residues 1-85)
# Method: protein binding microarray
# Molecule type: double-stranded DNA, one strand shown
# Sample: in vitro
# Tested at: not given
# Notes: 8-mer, flanks averaged, mean of 2 arrays, mostly near background
# Relative to: not given
# Reading: higher = stronger binding
# Residues (chain): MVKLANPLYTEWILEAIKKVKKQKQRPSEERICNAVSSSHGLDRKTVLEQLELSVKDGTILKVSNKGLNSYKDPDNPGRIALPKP
Sequence,E-score
ACAACCCA,-0.143
CTTCGGTC,-0.113
GACTATGC,-0.0721
AAGGTTCC,-0.129
GGGAGAAC,-0.109
CCATCAGA,-0.106
GTGTTCGA,0.000525
CATTAATA,-0.0783
AATACGCG,0.211
CAGTATGG,-0.214
CGCGGTCC,0.421
GACCTTAC,0.0148
AGGACAGC,-0.0941
CCGAATCC,0.121
CTGCTGAC,-0.119
CTTAAGTC,-0.239
AGTTACAA,0.0396
CTAGTGAG,-0.014
CCAGCCGA,0.164
CCTAGCCA,-0.283

# Study 4
# Target: RNA binding protein fox-1 homolog 2, RRM domain, GST-SBP tag (RBFOX2, Homo sapiens, UniProt O43251-10, residues 100-194)
# Method: RNA Bind-n-Seq
# Molecule type: RNA
# Sample: in vitro
# Tested at: 365 nM
# Notes: natural RNA segment, single round, ends assumed
# Relative to: no-protein control
# Reading: higher = stronger binding
# Constant ends, left off below: GGGAGUUCUACAGUCCGACGAUC … UGGAAUUCUCGGGUGCCAA
# Construct (chain): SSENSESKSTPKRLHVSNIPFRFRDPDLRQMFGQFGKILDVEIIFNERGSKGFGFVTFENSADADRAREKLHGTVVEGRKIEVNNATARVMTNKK
Sequence,RBNS enrichment (R)
CUGCUUUUGUGACAGUCAGAAAACACACCUGGAAUACGAUGCAGCCCACCAUUAACUCAUUCAUGUAGUUUAUUCAAGUGAUUUAUGUAUUUAAACUAAAUAUUGAAAAU,0.662
GAAAAUUCACUGUAUCAUGAAACCCUAAGGGUUUGUUGCACUUCCUGCUUUUUAGGCCUGGAUAACAGUAUCACCAUCCUUAUUUACAGAAGGGUAAAACUGACUCUUAA,0.39
CUGUUUCAACAGGAAAGUAGAUGUUUUGUGCUCCUUUUUGGAUUUUAUCUUCUUGCACAUGUUUGUACAGAAAUCACCUUCAUCCUUGUGGUGCUUACACACACCCAGUU,0.403
GUGGUUUUCAGUAUUGUGACAAUACAACGUUUUUACAAGGUUGUUUUCUACCACCAUAUUUUAAAGAUAUUUUUAUGACCGUGUAUACUCACACUUUGCUUGUAUUUUAA,1.58
UCCUGUGUUUGAUGUAUAUUACAUAGAGUCUUAAGUCAGUGUACAGUUCCACUGGAAUUUGACAGUUGUCUCUACAGUCAUGCAACUCGAAGUAGAAAAGAGUGCUGGAC,0.726
ACAAAAGUUCUUUGUAAAGAUGCUUAUUUUACAGUUAUCUGACACAGCAGCUUGUUACCAACAUUUUAAACCAAAUACUAAAAAGGUUUUUAAAGUCCUAGUAGAAAAAG,0.341
AAGAUUUUCUUUGUCUGUUGUUGGCAUAGAUUCUUUUGUACAUAUUUAUUUAUUUGUGUUUAUAUAUGUCAAUUGGUUUCCUUUCUUAGCUUGAUAUUGCCUAGCUUUGU,1.42
GGGUUCCCUUUGACUCCCCUGCUAACCCCACAUAAUUGAGAAUGUUUUGACCAAGUGUAAAAAUAGCUGGCCUUUUCCUUGUGAUUGGUCUUUAUUAGUCUUUUUAAUGC,0.426

# For quick reference, copied from above (study 1):
Sequence,E-score
GAAATAAC,0.176
CACCGGGA,-0.308
CAAGTTCC,-0.111
CTAGTTGA,-0.0328
AGATGTGC,0.0427
ACCCTCCC,-0.139
ACAGATCC,0.0537
